# Assay results collected from several papers.
# Lines come from different studies, so protocols differ. Values joined by “and” are separate records of one study, mostly repeats; a detail may differ.
# Target: G protein-coupled receptor kinase 3 (GRK3, Homo sapiens, UniProt P35626)
SMILES,test,setting,how to read,quantity,result
Cc1nc2c(F)cc(-c3nc(Nc4ccc(CNC(=O)CCCCCCC(=O)NO)cc4)ncc3F)cc2n1C(C)C,"enzyme activity, inhibitor",1 µM,,inhibition,4%
CC(C)=CC1OC(C)(C)C2C=C3C(=O)C(Cl)=CC(O)C3C3C(O)C4OC4C(=O)C132 (stereo not shown),"cell-free assay, competition with immobilised ligand",10 µM,,remaining binding,100%
CCn1cc(C(=O)O)c(=O)c2c(N)c(F)c(NC3CCCCC3)cc21,kinase activity,"0.1 µM, with: ATP at Km",,inhibition,-0.3%
COCC12C(=O)NC3C4(C(OC)CC1O)C1CC5(O)C(OC)C(O)C(OC(C)=O)(C1C5OC(=O)c1ccccc1)C3(O)C(OC)C24 (stereo not shown),"kinase activity, inhibitor, ProQinase kinase profiling",25 µM,baseline: control,remaining activity,96% and 94%
CNC(=O)C1CCN(c2cc(C)c(F)cc2NC(=O)c2ccc(-c3cc(O)ccc3C)c(C)c2)CC1,"binding, competition with immobilised ligand",1 µM,,remaining binding,80%
NC(=O)C[C@H]1CCc2sc3ncnc(O[C@H]4CC[C@H](N5CCOCC5)CC4)c3c21,"enzyme activity, inhibitor",10 µM,,inhibition,0%
O=C(Cc1ccc(OCc2ccccc2)cc1)NC1(C(=O)O)CCN(C(=O)c2ccc(-c3cccc(Cl)c3)cc2)CC1,"enzyme activity, inhibitor",10 µM,,activity vs control,99%
Cc1cnc2nc1Nc1cccc(c1)COC/C=C/COCc1cc(ccc1OCCN1CCOCC1)N2,"binding, competition with immobilised ligand",0.1 µM,,remaining binding,87%
CN1CC[C@@H](COc2cnc(C#N)cc2-c2ccn3nc(NC(=O)C4CC4)cc3c2)C1,"enzyme activity, inhibitor",1 µM,,inhibition,-8%
Nc1ncc2c(n1)-c1c([nH]c3ccc(C4=CCOCC4)cc13)CCC2,"binding, competition with immobilised ligand",1 µM,,remaining binding,100%
NC(=O)[C@@H](O)C[C@H]1CCc2sc3ncnc(O[C@H]4CC[C@H](N5CCOCC5)CC4)c3c21,"enzyme activity, inhibitor",10 µM,,inhibition,1%
COc1cc(Nc2nccc(-c3cnn4nc(OC)ccc34)n2)cc(C(F)(F)F)c1,"binding, competition with immobilised ligand",1 µM,,remaining binding,88%
Nc1ncc(-c2cc(-c3cnn(CC(F)(F)F)c3)ncc2F)nc1C(=O)NC1CNCC(F)C1 (stereo not shown),enzyme activity,1 µM,baseline: DMSO control,remaining activity,99.2%
C=CC(=O)N1Cc2nc(-c3cc(-c4cc(Cl)cnc4Cl)c(F)cc3F)n(-c3ccncn3)c2C1,"cell-free assay, inhibitor",1 µM,,inhibition,5.7%
C=CC(=O)N1CCCC(n2c(=O)c3ncccc3n(Cc3ccc(Oc4ccccc4)cc3)c2=O)C1 (stereo not shown),"cell-free assay, competition with immobilised ligand",1 µM,,remaining binding,47%
CNC(=O)C[C@H](Cc1ccc(C#N)cc1)NC(=O)c1cc(-c2ccc(CN[C@H](C)c3ccc(C)cc3)o2)ccc1Cl,"enzyme activity, inhibitor",1 µM,,activity vs control,99%
COc1c(Cl)cccc1Nc1c(-c2ccncc2C#C[C@@]2(C)CCCN2C(=O)/C=C/CN(C)C)[nH]c2c1C(=O)NCC2,"binding, competition with immobilised ligand",3 µM,,remaining binding,61%
CN1CCN(Cc2ccc(-c3ccc(CO[C@H]4CCC[C@@H]4NC(=O)c4cc(-c5cnn(C)c5)cnc4N)cc3)cc2)CC1,"enzyme activity, inhibitor",0.1 µM,,inhibition,-3%
COc1cc(Nc2nc(C)cc(-c3cnn4nc(OC)ccc34)n2)cc(C(F)(F)F)c1,KINOMEscan,"1 µM, ADRBK2",baseline: DMSO,remaining binding,100%

# A few entries again:
SMILES,test,setting,how to read,quantity,result
Nc1ncc2c(n1)-c1c([nH]c3ccc(C4=CCOCC4)cc13)CCC2,"binding, competition with immobilised ligand",1 µM,,remaining binding,100%
COc1cc(Nc2nccc(-c3cnn4nc(OC)ccc34)n2)cc(C(F)(F)F)c1,"binding, competition with immobilised ligand",1 µM,,remaining binding,88%
NC(=O)[C@@H](O)C[C@H]1CCc2sc3ncnc(O[C@H]4CC[C@H](N5CCOCC5)CC4)c3c21,"enzyme activity, inhibitor",10 µM,,inhibition,1%
